# Experimental data collected from several papers.
# Protein sequences, listed by entry. Tags and fused reporters are not part of them. Lines headed by an entry give the natural chain unless they say otherwise; changes in a name come on top. Residues count along the entry.
# UniProt Q99797, 36-713 limits assumed: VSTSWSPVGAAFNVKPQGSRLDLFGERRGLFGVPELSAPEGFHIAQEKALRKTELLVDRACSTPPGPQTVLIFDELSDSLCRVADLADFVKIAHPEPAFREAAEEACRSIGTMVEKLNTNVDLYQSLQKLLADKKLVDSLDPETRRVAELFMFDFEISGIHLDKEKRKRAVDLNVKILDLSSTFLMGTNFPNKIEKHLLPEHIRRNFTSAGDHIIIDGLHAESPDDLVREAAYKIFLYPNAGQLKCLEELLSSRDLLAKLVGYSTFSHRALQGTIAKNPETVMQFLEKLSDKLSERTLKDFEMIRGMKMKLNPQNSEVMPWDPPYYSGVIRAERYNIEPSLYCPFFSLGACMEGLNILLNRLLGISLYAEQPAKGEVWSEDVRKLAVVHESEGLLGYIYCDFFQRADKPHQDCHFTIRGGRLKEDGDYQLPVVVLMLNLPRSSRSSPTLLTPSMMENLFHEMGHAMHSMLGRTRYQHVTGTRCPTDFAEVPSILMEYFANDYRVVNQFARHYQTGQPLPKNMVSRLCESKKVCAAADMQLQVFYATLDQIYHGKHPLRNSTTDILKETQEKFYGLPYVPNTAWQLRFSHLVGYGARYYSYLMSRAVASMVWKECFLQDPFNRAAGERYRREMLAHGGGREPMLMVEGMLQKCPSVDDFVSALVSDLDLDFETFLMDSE
# UniProt P45983, 1-384 isoform 3: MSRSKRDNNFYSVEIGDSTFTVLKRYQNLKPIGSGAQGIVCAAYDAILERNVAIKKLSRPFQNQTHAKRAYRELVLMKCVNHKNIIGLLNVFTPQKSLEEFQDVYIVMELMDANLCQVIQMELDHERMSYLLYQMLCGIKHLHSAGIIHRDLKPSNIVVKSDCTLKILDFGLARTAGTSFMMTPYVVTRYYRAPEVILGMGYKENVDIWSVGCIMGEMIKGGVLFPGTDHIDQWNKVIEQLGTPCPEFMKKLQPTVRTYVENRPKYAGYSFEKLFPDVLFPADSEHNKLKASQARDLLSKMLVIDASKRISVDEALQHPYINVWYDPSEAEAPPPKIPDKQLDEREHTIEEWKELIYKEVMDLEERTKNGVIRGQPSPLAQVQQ
# UniProt P45983, 1-384 isoform 3 C116S: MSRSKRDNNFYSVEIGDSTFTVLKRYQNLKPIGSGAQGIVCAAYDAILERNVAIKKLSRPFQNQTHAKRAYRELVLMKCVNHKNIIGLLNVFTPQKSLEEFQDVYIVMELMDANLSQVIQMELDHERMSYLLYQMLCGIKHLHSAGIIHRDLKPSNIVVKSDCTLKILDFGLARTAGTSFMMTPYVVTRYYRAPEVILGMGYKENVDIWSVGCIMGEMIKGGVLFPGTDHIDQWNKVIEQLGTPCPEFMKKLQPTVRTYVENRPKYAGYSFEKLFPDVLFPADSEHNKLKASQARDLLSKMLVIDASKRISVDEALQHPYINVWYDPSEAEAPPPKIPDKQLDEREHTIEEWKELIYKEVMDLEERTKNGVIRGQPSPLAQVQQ
# UniProt P46934, whole entry, looked up: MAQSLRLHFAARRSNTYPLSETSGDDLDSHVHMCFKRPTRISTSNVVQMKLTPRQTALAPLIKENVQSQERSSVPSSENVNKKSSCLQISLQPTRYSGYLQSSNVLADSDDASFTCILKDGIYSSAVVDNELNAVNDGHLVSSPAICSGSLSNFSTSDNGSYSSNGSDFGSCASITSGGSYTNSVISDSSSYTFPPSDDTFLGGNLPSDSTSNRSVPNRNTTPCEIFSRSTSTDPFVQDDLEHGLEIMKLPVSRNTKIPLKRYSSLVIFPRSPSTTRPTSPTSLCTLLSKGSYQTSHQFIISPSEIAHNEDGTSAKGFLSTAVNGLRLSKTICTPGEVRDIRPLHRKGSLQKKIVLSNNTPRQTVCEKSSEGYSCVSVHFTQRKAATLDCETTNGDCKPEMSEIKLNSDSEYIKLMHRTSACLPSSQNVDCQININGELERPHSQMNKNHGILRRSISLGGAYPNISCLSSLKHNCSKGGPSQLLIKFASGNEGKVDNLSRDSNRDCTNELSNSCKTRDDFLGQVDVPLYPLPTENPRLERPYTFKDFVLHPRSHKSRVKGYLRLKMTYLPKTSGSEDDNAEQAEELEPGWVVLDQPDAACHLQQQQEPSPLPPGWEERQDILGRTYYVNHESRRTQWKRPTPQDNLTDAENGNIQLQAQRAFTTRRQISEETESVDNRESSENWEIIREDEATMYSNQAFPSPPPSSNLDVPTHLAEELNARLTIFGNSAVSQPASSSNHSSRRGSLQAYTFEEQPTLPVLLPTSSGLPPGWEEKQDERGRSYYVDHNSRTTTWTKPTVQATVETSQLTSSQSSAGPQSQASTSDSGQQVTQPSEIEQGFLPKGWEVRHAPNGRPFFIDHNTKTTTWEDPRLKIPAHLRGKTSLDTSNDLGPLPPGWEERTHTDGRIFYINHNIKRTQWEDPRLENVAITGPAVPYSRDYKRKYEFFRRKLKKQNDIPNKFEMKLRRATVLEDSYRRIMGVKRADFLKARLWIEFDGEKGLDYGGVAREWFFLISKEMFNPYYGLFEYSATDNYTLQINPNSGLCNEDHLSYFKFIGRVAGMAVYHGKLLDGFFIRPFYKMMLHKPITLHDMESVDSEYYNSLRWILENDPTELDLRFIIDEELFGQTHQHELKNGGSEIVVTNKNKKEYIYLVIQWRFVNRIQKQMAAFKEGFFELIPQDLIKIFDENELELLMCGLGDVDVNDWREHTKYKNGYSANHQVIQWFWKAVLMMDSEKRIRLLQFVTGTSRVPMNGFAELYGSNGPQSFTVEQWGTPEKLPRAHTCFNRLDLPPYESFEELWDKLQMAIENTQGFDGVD
# UniProt P21462, whole entry: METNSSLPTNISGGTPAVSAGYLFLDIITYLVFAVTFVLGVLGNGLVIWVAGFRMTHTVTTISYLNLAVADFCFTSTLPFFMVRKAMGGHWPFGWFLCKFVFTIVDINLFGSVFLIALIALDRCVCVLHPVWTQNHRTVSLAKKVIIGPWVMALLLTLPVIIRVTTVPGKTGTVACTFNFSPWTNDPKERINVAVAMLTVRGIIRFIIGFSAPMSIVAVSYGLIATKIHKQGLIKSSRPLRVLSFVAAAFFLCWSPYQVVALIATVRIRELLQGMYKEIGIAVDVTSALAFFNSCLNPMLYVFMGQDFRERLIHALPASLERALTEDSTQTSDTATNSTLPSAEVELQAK
# UniProt Q9NTG7, whole entry: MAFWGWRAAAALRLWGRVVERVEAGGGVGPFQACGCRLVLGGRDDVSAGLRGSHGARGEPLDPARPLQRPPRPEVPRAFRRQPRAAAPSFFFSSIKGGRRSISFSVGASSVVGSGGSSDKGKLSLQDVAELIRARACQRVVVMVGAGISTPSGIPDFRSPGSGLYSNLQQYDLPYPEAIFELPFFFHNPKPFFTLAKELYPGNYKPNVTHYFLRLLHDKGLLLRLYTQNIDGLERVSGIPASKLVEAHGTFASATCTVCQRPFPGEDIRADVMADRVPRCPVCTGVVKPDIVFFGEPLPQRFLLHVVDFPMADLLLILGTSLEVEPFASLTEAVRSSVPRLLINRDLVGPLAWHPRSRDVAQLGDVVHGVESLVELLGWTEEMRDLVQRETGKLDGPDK
# UniProt P42260, 32-908 limits assumed: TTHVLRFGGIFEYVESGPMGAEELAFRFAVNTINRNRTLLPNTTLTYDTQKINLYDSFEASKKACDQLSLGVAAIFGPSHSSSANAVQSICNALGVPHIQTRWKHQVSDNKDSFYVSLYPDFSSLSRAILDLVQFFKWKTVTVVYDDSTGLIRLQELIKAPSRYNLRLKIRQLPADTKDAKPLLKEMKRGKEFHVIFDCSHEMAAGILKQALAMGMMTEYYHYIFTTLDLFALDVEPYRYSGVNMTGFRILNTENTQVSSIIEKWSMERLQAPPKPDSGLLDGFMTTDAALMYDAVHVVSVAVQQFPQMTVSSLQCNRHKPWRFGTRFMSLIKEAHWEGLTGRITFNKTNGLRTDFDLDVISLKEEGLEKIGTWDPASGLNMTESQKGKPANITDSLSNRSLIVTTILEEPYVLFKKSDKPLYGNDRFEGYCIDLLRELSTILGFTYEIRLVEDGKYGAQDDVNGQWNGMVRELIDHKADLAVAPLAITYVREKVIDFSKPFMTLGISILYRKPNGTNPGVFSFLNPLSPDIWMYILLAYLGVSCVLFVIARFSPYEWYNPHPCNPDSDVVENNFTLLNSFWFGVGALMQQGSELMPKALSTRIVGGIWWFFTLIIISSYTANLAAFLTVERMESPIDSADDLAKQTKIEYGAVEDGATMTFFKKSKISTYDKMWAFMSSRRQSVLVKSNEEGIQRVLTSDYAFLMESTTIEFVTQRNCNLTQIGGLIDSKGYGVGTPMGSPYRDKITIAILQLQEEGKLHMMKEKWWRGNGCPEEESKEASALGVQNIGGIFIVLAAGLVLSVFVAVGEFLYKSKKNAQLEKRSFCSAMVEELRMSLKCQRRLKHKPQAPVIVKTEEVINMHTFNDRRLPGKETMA
# UniProt P05067, 672-713 limits assumed: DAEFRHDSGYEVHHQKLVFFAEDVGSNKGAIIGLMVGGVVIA
# UniProt O60502, whole entry: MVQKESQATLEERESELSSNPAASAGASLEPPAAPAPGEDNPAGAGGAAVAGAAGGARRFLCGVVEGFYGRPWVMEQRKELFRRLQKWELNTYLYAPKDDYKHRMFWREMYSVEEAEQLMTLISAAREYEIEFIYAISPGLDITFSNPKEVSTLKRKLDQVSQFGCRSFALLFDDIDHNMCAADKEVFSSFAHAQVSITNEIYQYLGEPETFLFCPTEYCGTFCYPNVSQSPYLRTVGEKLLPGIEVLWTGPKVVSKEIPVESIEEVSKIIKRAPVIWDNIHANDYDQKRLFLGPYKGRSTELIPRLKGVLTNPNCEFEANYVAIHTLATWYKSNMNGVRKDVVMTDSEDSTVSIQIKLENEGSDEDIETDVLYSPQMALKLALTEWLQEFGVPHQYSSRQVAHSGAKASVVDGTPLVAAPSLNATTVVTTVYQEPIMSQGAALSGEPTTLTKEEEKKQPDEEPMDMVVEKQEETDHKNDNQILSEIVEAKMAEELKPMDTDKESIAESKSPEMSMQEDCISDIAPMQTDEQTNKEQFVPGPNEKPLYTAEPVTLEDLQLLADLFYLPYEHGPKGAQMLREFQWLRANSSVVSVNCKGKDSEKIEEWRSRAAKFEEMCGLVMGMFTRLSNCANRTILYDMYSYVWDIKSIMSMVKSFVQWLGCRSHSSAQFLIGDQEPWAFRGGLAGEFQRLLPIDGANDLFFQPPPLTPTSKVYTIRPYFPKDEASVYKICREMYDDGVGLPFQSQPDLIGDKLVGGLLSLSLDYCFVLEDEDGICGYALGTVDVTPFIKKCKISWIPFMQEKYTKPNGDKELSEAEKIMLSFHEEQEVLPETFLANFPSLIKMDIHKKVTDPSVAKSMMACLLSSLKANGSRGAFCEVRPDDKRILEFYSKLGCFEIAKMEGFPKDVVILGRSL
# UniProt O89017, 18-435 limits assumed: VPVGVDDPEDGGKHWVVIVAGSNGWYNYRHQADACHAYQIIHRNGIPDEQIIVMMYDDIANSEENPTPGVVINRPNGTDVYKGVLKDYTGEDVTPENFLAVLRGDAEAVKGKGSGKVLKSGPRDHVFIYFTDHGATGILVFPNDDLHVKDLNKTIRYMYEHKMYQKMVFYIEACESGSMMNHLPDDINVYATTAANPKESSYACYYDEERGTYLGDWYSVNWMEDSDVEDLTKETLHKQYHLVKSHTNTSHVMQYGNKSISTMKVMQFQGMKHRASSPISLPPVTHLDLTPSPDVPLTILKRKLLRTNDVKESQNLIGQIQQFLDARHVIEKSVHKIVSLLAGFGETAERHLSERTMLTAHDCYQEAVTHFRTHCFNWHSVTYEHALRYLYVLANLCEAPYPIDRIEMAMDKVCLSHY
# UniProt P50750, whole entry: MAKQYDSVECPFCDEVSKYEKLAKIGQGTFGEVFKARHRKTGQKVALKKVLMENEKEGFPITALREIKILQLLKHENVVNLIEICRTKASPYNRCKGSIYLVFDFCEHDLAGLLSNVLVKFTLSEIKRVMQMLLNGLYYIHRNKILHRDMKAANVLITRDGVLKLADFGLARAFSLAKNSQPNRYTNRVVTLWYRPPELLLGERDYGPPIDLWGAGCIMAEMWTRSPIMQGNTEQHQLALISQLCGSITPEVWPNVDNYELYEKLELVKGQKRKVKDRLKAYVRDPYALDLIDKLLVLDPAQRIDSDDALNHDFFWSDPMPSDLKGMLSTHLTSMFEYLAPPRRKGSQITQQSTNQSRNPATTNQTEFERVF
# UniProt P07900, 1-236 S52A limits assumed: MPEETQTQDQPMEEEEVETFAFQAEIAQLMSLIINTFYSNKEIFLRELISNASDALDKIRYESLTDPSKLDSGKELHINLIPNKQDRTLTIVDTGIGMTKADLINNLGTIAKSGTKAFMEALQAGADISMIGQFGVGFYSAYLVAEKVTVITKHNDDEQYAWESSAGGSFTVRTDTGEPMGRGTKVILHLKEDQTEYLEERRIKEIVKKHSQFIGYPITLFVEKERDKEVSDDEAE
# Lines come from different studies, so protocols differ. “And” joins repeats or separate records; there may be more than shown. ± gives the spread as reported.
# MIPEP: Mitochondrial intermediate peptidase (MIPEP, Homo sapiens, UniProt Q99797)
# MAPK8: Mitogen-activated protein kinase 8 (MAPK8, Homo sapiens, UniProt P45983)
# E3 ubiquitin-protein ligase NEDD4: E3 ubiquitin-protein ligase NEDD4 (Homo sapiens, UniProt P46934)
# RPA1 N-terminal domain: Replication protein A 70 kDa DNA-binding subunit, N-terminal domain (RPA1, Homo sapiens, UniProt P27694)
# Grm2: Metabotropic glutamate receptor 2 (Grm2, Rattus norvegicus, UniProt P31421)
# Lysophospholipase-like protein 1: Lysophospholipase-like protein 1 (Mus musculus, UniProt Q3UFF7)
# FPR1: fMet-Leu-Phe receptor (FPR1, Homo sapiens, UniProt P21462)
SMILES,target,assay,test system,conditions,how to read,quantity,result
CC[C@H](C)[C@H](NC(=O)c1ccccc1N)C(=O)N[C@@H](CCCCN)C(=O)N[C@@H](CCC(N)=O)C(=O)N[C@@H](CO)C(=O)N[C@@H](CO)C(=O)N[C@@H](CC(C)C)C(=O)N[C@@H](CC(C)C)C(=O)N[C@@H](CCCCNc1ccc([N+](=O)[O-])cc1[N+](=O)[O-])C(N)=O,MIPEP,"substrate, FRET peptide hydrolysis",,,,kcat/Km,50 mM⁻¹ s⁻¹
O=C1CCC(N2Cc3cc(-c4nc5ccccn5c4NC45CC6CC(CC(C6)C4)C5)ccc3C2=O)C(=O)N1 (centres unmarked),"WEE1/CRBN (Homo sapiens, UniProt P30291+Q96SW2, G322A)","degrader, HiBiT",MOLM-14,5 h,reference: G322A over wild type,DC50 ratio,50 fold
N#Cc1cnc(Nc2nc3ccccc3o2)nc1-c1ccc2ccccc2c1,"Metabotropic glutamate receptor 5 (Grm5, Rattus norvegicus, UniProt P31424)","calcium mobilization, negative allosteric modulator",,with: glutamate EC80,reference: glutamate maximum,maximal response,47 ± 11%
CSCC[C@H](NC(=O)c1ccccc1N)C(=O)N[C@H](C(=O)N[C@@H](C)C(=O)N[C@@H](C)C(=O)N[C@@H](CC(C)C)C(=O)N[C@@H](CCCCN)C(=O)N[C@H](C(=O)N[C@@H](CCCCNc1ccc([N+](=O)[O-])cc1[N+](=O)[O-])C(N)=O)[C@@H](C)O)[C@@H](C)O,MIPEP,"substrate, FRET peptide hydrolysis",,multiple cleavage sites,,apparent kcat,0.19 s⁻¹
CC(=O)N[C@@H](CCC(N)=O)C(=O)N[C@H](C(=O)N[C@@H](C)C(=O)N[C@@H](CCCNC(=N)N)C(=O)N[C@@H](CCCCNC(=O)CCc1ccc(N=Nc2ccc(N(C)C)cc2)cc1)C(=O)N[C@@H](CO)C(=O)N[C@H](C(=O)NCC(=O)NCC(=O)NCCCNC(=S)Nc1ccc2c(c1)C(=O)OC21c2ccc(O)cc2Oc2cc(O)ccc21)[C@@H](C)O)[C@@H](C)O,"NAD-dependent protein deacetylase sirtuin-3, mitochondrial (SIRT3, Homo sapiens, UniProt Q9NTG7)","enzyme activity, substrate, plate reader kinetics",,"60 nM enzyme, with: 500 µM NAD+",,kcat,0.0019 ± 3e-05 s⁻¹
COC(=O)[C@@]1(C)C=C(C(=O)Nc2cccc(C(=O)NC34CC(Nc5nccc(-c6cccnc6)n5)(C3)C4)c2)C(=O)CC1,MAPK8,"kinase activity, inhibitor",,"4.938 µM, with: 10 mM GSH",,remaining activity,0.0419 fraction of control
O=C(O)c1cc(C(=O)N[C@@H](Cc2cnc[nH]2)C(=O)O)cc([C@H]2CCN[C@@H]2C(=O)O)c1,"Glutamate receptor ionotropic, kainate 2 (Grik2, Rattus norvegicus, UniProt P42260)",radioligand binding,Sf9 membranes,"10 µM, homomeric receptor, with: [3H]kainate",,specific binding,66 ± 1%
CCOC(=O)/C=C/CNCCCN1c2ccccc2CCc2ccc([N+](=O)[O-])cc21,E3 ubiquitin-protein ligase NEDD4,"inhibitor, Ub-TR-FRET",,"100 µM, 1 h preincubation, HECT domain, with: ATP 2 mM",higher = more ubiquitination,ubiquitination TR-FRET signal AUC,28100 a.u. and 24100 a.u. and 23100 a.u.
COc1ccc2[nH]cc(/C=C/c3cccc(O)c3)c2c1,"Amyloid-beta precursor protein, Aβ1-40 (APP, Homo sapiens, UniProt P05067)","Aβ40 aggregation, thioflavin T fluorescence",,25 µM,,inhibition,23%
CC(=O)NCCCC[C@H](NC(=O)CNC(=O)[C@H](CCCNC(=N)N)NC(C)=O)C(=O)Nc1ccc2c(C)cc(=O)oc2c1,"Histone deacetylase 8 (HDAC8, Homo sapiens, UniProt Q9BY41)","deacetylation, substrate",,"25 °C, with: 150 nM enzyme",,kcat/KM,23 ± 6 M⁻¹ s⁻¹
Cc1ccc(C(=O)Nc2cc(Cl)ccc2C(=O)O)cc1S(=O)(=O)Nc1cccc(Cl)c1,RPA1 N-terminal domain,"binding, fluorescence polarisation competition",,with: FITC-ATRIP probe,,ligand efficiency,0.23
CCOC(=O)/C=C/CNCCCCN1c2ccccc2CCc2ccc(Cl)cc21,"E3 ubiquitin-protein ligase NEDD4-like (NEDD4L, Homo sapiens, UniProt Q96PU5)","inhibitor, Ub-TR-FRET",,"33.33 µM, 1 h preincubation, DMSO up to 2%, with: ATP 2 mM",higher = more ubiquitination,ubiquitination TR-FRET signal AUC,609000 a.u.
CC(=O)Nc1ncc(CN2CC[C@H](Oc3cccc(F)n3)C[C@@H]2C)s1 [isotope labelled],"Protein O-GlcNAcase (OGA, Homo sapiens, UniProt O60502)",saturation binding,human cortex homogenate,radiolabelled compound,,Bmax,16.5 ± 1 nM
CCOC(=O)C1OC1C(=O)N(CC(N)=O)NC(=O)C1CCCN1C(=O)C1(NC(C)=O)CC1 (centres unmarked),"Legumain (Mus musculus, UniProt O89017)",inhibitor,,"pH 5.8, with: Cbz-Ala-Ala-Asn-AMC 10 µM",,kobs/[I],46500 M⁻¹ s⁻¹
CN(c1ccncc1)c1ccc2c(c1)c(=O)c(C(N)=O)cn2-c1ccc(F)cc1,Grm2,"calcium mobilization, negative allosteric modulator",,"30 µM, with: glutamate 100 µM",reference: glutamate maximum,response,1.16 ± 0.55%
COc1ccc(S(=O)(=O)N2CCCN(CC(=O)Nc3ccc(OC)cc3OC)CC2)cc1,"Metabotropic glutamate receptor 4 (GRM4, Homo sapiens, UniProt Q14833)","calcium mobilization, positive allosteric modulator",CHO cells with Gqi5,with: glutamate,reference: PHCCC maximal response,maximal response,69.5%
CCCN(C(=O)C1CCN(S(=O)(=O)c2ccc3[nH]ncc3c2)CC1)[C@@H]1CCc2ccccc21,"Muscarinic acetylcholine receptor M5 (CHRM5, Homo sapiens, UniProt P08912)","positive allosteric modulator, calcium mobilization",CHO cells expressing human M5,with: acetylcholine EC20,reference: ACh maximum,potentiation,73 ± 4%
CC(=O)N[C@H]1[C@@H](O[C@H](C)[C@H](N)C(=O)O)O[C@H](CO)[C@H](O)[C@@H]1O[C@@H]1O[C@H](CO)[C@H](O)[C@H](O)[C@H]1O,"CLEC10A, carbohydrate recognition domain (Homo sapiens, UniProt Q8IUN9)","binding, ITC",,293 K,,ΔG,-2.99 kcal/mol
COC(=O)[C@@]1(C)C=C(C(=O)OCc2cccc(C(=O)Nc3ccc(Nc4nccc(-c5cccnc5)n4)c(C)c3)c2)C(=O)CC1,"Mitogen-activated protein kinase 8 (MAPK8, Homo sapiens, UniProt P45983, C116S)",surface plasmon resonance,,"100, 300, 1000 nM, 1:1 binding model",,kon,390000 M⁻¹ s⁻¹
CN(C)C(=O)Cn1cc(-c2ccc(-c3cncc4ccncc34)cc2)cn1,"Cyclin-dependent kinase 9 (CDK9, Homo sapiens, UniProt P50750)","enzyme activity, SelectScreen",,concentration not given,,inhibition,no inhibition
Nc1nc(NCCc2ccc(Cl)cc2)nn1S(=O)(=O)c1ccc2c(c1)CCO2,Lysophospholipase-like protein 1,"activator, gel-based ABPP, FP-rhodamine",HEK293 overexpressing Lysophospholipase-like protein 1,10 µM,,activation,0%
Cc1ccc2c(c1)C(n1cc(CNc3ccc(C(=O)NCCC(=O)O)cc3)nn1)CCC2 (centres unmarked),"Glucagon-like peptide 1 receptor (GLP1R, Homo sapiens, UniProt P43220)","cAMP accumulation, positive allosteric modulator, HTRF",,"0.6 µM, with: GLP-1(9-36) at EC20",reference: BETP,Emax,97%
CCOc1ccc(NC(=O)CSc2nc3ccc(OCC)cc3[nH]2)cc1,FPR1,"calcium mobilization, agonist",HL-60 transfected with FPR1,concentration not given,,activity,inactive
C/C=C/Cn1c(Cc2cc(OC)c(OC)c(OC)c2)nc2c(N)ncnc21,"Heat shock protein HSP 90-alpha, N-terminal domain (HSP90AA1, Homo sapiens, UniProt P07900, S52A)",isothermal titration calorimetry,,"298 K, N-terminal domain S52A",,ΔH,-11.5 ± 0.19 kcal/mol
O=C(Nc1ccc(C(=O)N2CC(c3nccs3)C2)s1)[C@@H]1CCCN1,"YEATS domain-containing protein 4 (Homo sapiens, UniProt O95619)",thermal shift,,"concentration not given, 5 µM protein",reference: vehicle,melting temperature shift,~3 °C
CCOC(=O)/C=C/CNCCCCCN1c2ccccc2CCc2ccc(Cl)cc21,E3 ubiquitin-protein ligase NEDD4,"inhibitor, Ub-TR-FRET",,"100 µM, 1 h preincubation, HECT domain, with: ATP 2 mM",higher = more ubiquitination,ubiquitination TR-FRET signal AUC,16100 a.u. and 16000 a.u. and 15800 a.u.
Cc1cc(NC(=O)c2cccc(NC(=O)C3=CC(C)(C)CC3=O)c2)ccc1Nc1nccc(-c2cccnc2)n1,MAPK8,"kinase activity, inhibitor",,"0.1829 µM, unit not given, with: 10 mM GSH",reference: DMSO,remaining activity,0.594
COc1ccc(S(=O)(=O)n2nc(SCc3ccc(Cl)cc3)nc2N)cn1,Lysophospholipase-like protein 1,"activator, gel-based ABPP, FP-rhodamine",HEK293 overexpressing Lysophospholipase-like protein 1,10 µM,,activation,32%
COCOc1ccc(/C=C/C(=O)C(CCC(=O)OC)C(=O)/C=C/c2ccc(OCOC)c(OC(F)(F)F)c2)cc1OC(F)(F)F,"Amyloid-beta precursor protein (APP, Homo sapiens, UniProt P05067)","SDS-PAGE western blot, item: Aβ1-42 species 75-200 kDa",,"30 µM, 24 h, 37 °C, with: Aβ 10 µM",reference: DMSO control,Aβ band density,342 ± 73%
NC(=O)c1cn(-c2ccc(F)cc2)c2ccc(Nc3cccnc3)cc2c1=O,Grm2,"calcium mobilization, negative allosteric modulator",,"30 µM, with: glutamate 100 µM",reference: glutamate maximum,response,2.11 ± 0.42%
Cc1ccc(C(=O)Nc2cc(Cl)ccc2C(=O)O)cc1S(=O)(=O)Nc1ccc(Br)cc1,RPA1 N-terminal domain,"binding, fluorescence polarisation competition",,with: FITC-ATRIP probe,,ligand efficiency,0.21
O=C(O)c1ccnc(C(=O)O)c1Nc1ccc([N+](=O)[O-])cc1,"fdhA (Pseudomonas putida, UniProt P46154)","inhibitor, spectrophotometric",,"200 µM, counterscreen",,remaining activity,100%
CCc1ccc(NC(=O)c2ccc(C)c(S(=O)(=O)Nc3ccc(Br)cc3)c2)c(C(=O)O)c1,RPA1 N-terminal domain,"binding, fluorescence polarisation competition",,with: FITC-ATRIP probe,,ligand efficiency,0.22
COCCN1C(=O)C(O)=C(C(=O)c2ccc(C)cc2)C1c1ccc(OC)cc1OC (centres unmarked),FPR1,"fMLF-induced calcium mobilization, antagonist",HL-60 expressing FPR1,"concentration not given, inactive if none at 50 µM",,antagonist activity,active
Nc1ncnc2c1c(-c1ccc(C(=O)Nc3cc(C(F)(F)F)ccn3)cc1)nn2[C@@H]1CCCN(C(=O)C2CC2)C1,"Tyrosine-protein kinase BTK, non-phosphorylated (BTK, Homo sapiens, UniProt Q06187)",TR-FRET binding kinetics,,"37 °C, unphosphorylated enzyme",,residence time,~20 min and 21.9 min

# Repeated from above:
SMILES,target,assay,test system,conditions,how to read,quantity,result
COC(=O)[C@@]1(C)C=C(C(=O)OCc2cccc(C(=O)Nc3ccc(Nc4nccc(-c5cccnc5)n4)c(C)c3)c2)C(=O)CC1,"Mitogen-activated protein kinase 8 (MAPK8, Homo sapiens, UniProt P45983, C116S)",surface plasmon resonance,,"100, 300, 1000 nM, 1:1 binding model",,kon,390000 M⁻¹ s⁻¹
COC(=O)[C@@]1(C)C=C(C(=O)Nc2cccc(C(=O)NC34CC(Nc5nccc(-c6cccnc6)n5)(C3)C4)c2)C(=O)CC1,MAPK8,"kinase activity, inhibitor",,"4.938 µM, with: 10 mM GSH",,remaining activity,0.0419 fraction of control
